Results collected from several papers.
Lines come from different studies, so protocols differ. ± gives the spread as reported.
CDK2 with cyclin A2: Cyclin-dependent kinase 2, with cyclin A2 (CDK2, Homo sapiens, UniProt P24941)
Chain of UniProt Q96PF2 (whole entry, looked up): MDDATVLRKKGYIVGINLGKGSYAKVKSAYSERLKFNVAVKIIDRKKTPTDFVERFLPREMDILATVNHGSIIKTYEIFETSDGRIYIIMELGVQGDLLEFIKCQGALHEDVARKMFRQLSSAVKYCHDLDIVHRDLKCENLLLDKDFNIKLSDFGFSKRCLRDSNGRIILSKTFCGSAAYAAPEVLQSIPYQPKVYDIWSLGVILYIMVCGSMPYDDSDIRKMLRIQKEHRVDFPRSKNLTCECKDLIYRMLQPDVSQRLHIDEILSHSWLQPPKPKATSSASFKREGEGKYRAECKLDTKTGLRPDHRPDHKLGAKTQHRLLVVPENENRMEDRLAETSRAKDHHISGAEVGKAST
Chain of UniProt P0C264 (whole entry, looked up): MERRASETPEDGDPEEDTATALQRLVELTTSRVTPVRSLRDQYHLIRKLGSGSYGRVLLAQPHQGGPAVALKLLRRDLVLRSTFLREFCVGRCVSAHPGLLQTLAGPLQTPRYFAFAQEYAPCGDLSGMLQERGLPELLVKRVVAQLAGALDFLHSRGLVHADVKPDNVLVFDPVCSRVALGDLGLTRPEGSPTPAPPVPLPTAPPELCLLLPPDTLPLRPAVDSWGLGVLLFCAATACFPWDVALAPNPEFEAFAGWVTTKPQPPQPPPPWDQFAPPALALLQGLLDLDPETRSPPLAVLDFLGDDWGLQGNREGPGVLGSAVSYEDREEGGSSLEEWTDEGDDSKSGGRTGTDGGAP
Chain of UniProt P08069 (whole entry, looked up): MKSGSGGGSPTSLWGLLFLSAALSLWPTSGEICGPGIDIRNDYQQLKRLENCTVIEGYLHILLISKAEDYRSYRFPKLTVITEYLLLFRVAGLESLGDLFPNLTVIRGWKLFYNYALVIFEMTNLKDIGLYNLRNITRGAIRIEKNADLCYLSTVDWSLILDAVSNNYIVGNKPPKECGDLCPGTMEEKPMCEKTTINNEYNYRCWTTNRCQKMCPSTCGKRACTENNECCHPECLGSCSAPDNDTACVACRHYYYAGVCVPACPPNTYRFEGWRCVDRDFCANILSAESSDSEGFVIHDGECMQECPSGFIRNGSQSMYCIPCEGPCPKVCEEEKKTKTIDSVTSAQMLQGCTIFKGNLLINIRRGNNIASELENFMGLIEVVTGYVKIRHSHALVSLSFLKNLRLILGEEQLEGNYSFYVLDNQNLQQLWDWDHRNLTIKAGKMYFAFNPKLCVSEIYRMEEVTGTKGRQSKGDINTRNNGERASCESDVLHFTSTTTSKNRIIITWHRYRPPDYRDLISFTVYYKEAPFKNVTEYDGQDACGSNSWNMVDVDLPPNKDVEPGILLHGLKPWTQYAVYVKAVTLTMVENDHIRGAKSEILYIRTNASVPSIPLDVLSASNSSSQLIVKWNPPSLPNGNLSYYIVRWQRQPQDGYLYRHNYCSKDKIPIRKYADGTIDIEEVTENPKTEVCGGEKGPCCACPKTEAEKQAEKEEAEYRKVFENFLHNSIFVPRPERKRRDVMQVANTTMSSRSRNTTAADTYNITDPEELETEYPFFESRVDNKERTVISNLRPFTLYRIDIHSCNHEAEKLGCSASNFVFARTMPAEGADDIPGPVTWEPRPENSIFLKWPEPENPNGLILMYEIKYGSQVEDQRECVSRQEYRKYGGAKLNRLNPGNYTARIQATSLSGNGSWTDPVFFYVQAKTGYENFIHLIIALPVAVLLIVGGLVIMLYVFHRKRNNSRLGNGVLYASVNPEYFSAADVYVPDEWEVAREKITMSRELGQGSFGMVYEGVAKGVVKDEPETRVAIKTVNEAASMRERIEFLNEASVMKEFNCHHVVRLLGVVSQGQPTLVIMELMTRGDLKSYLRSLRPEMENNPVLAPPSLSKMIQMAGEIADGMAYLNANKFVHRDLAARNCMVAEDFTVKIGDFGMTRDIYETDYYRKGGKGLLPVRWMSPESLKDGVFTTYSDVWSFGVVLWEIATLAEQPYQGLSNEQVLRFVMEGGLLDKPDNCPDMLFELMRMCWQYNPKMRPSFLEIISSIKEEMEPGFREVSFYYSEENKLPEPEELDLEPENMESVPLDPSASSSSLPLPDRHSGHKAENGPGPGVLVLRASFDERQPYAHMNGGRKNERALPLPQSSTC
Chain of UniProt Q15303 (whole entry, looked up): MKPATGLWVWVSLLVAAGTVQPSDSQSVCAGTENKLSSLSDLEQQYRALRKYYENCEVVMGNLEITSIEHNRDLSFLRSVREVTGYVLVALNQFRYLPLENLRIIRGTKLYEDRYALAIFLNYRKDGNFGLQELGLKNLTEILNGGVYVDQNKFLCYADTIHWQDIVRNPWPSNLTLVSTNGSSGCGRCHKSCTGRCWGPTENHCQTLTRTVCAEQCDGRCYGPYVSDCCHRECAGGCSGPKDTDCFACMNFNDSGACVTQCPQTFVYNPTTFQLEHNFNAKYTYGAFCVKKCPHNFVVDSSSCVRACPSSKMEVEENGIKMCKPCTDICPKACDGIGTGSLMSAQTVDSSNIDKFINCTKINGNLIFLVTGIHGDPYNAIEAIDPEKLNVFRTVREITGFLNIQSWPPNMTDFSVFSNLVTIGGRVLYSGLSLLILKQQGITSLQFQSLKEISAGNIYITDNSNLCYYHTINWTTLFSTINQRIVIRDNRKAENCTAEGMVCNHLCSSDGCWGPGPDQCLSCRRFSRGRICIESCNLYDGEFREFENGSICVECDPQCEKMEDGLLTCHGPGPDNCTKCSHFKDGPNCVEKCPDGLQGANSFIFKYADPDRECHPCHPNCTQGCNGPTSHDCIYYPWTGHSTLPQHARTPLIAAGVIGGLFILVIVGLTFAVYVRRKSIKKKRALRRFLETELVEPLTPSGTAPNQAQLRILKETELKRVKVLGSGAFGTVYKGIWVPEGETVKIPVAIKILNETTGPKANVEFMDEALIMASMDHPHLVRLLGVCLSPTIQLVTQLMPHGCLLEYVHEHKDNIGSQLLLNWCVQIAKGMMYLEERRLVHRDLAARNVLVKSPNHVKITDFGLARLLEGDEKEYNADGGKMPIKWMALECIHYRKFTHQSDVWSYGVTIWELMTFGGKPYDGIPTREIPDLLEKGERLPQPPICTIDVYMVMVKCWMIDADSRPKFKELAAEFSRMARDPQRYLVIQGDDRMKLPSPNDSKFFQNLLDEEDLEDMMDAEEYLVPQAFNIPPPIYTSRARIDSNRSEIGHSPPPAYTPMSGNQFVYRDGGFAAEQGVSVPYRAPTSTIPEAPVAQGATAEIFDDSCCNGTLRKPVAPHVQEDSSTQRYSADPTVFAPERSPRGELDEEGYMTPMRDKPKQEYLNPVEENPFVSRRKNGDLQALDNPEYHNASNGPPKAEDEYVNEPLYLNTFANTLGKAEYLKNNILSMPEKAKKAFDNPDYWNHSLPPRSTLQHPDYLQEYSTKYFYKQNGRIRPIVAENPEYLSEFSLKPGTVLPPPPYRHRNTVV
Chain of UniProt P30291 (whole entry, looked up): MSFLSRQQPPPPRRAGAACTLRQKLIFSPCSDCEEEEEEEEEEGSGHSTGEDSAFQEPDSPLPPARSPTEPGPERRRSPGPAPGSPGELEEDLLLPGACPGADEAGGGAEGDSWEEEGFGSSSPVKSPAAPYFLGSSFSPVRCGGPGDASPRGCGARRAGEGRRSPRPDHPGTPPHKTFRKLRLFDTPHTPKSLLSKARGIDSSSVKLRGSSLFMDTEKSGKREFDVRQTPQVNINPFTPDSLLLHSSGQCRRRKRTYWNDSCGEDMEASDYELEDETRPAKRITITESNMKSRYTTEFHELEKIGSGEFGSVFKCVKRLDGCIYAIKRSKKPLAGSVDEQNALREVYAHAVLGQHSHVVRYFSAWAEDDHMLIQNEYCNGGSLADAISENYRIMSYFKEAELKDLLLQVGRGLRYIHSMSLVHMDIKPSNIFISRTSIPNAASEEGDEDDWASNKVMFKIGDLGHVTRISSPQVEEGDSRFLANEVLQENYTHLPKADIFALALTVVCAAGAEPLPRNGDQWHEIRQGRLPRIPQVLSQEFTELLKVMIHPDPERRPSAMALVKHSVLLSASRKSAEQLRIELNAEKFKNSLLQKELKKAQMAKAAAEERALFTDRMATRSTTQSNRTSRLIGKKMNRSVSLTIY
Chain of UniProt O35904 (whole entry, looked up): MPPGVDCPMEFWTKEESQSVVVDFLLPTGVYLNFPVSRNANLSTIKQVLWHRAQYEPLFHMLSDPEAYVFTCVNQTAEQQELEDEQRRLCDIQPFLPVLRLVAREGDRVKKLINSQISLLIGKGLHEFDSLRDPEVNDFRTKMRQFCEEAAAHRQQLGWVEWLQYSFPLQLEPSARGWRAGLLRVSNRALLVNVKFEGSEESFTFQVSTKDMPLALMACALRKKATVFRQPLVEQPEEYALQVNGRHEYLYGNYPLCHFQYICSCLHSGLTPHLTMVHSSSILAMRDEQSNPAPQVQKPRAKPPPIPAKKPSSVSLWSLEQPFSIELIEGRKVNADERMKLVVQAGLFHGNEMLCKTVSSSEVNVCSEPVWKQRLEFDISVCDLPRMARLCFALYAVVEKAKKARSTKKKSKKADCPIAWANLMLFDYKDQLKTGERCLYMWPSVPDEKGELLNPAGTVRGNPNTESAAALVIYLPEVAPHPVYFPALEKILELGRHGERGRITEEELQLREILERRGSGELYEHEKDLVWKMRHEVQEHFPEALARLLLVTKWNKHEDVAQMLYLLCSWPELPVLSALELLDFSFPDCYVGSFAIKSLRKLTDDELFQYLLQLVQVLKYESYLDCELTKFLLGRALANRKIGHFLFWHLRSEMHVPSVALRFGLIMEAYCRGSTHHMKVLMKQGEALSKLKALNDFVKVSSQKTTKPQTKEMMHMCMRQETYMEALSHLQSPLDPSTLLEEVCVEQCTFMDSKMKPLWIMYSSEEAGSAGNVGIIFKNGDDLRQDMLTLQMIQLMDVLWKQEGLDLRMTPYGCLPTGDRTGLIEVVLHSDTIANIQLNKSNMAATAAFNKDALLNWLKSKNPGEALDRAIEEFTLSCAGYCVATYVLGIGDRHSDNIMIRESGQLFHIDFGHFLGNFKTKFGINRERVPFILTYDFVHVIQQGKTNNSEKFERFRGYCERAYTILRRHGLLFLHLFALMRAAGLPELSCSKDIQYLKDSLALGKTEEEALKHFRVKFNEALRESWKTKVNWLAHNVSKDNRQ

The remaining activity of CC(=O)Nc1c(N)nc(SCC(=O)N/N=C/c2ccc([N+](=O)[O-])cc2)[nH]c1=O is reported as 32.8% (CDK2 with cyclin A2; kinase activity; 1000 nM).
O=C(O)c1ccc(Nc2ncc3c(n2)-c2ccc(Cl)cc2C(c2c(F)cccc2F)=NC3)cc1 gave a remaining activity of 110% (human Snk(h); kinase activity; 1 µM).
The remaining activity of COc1cc(-c2cncc3c2CN(C)Cc2cc(N4CCNCC4)ccc2-3)cc(OC)c1OC is reported as 94% (Phosphatidylinositol 4,5-bisphosphate 3-kinase catalytic subunit delta isoform, with p85 alpha (Pik3cd, Mus musculus, UniProt O35904); kinase activity; 1 µM, p110d/p85a)(m mouse, with: ATP 10 µM; reference: DMSO).
C=CC(=O)N1CCC[C@@H](n2nc(-c3ccc(Oc4ccccc4)cc3)c3c(N)ncnc32)C1 gave a remaining activity of 87.6% (TSSK2 (Homo sapiens, UniProt Q96PF2); 0.1 µM).
COc1cc(N2CCN(C)CC2)ccc1Nc1nc(N)n(C(=S)NCc2c(Cl)cccc2Cl)n1 has a remaining activity of 0.1% (DCLK2 (Homo sapiens, UniProt Q8N568); enzyme activity; 10 µM; reference: control).
O=C(NC1CCC1)c1ccc2nc(-c3cccc(NS(=O)(=O)NCCN4CCCCC4)c3)cn2c1 has a remaining activity of 84% (SBK3 (Homo sapiens, UniProt P0C264); enzyme activity; 10 µM).
Cn1c(COc2cccc3cccnc23)nnc1SCC(N)=O gave a Kd of over 100 µM (Cyclin-dependent kinase 2, with cyclin A (CDK2, Homo sapiens, UniProt P24941)).
For COc1ccc(F)cc1C(=O)NCc1ccc(-c2nn([C@@H](C)C(F)(F)F)c(N)c2C(N)=O)cc1, the remaining activity was 2.6 ± 0.6% (ERBB4 (Homo sapiens, UniProt Q15303); kinase activity, inhibitor, HotSpot radiometric; 1000 nM, with: ATP at Km).
The Kd of COC(=O)c1ccccc1Oc1nc(NC(C)C)nc(NC(C)C)n1 is reported as over 100 µM (CDK2 (Homo sapiens, UniProt P24941); binding).
Cn1cc(-c2ccc(-c3cncc(Cl)c3N3CCC4(CCNC4=O)CC3)cc2)cn1 — result for “fold change in expression”: 3.43 (COLO 205; microarray, refers to: LGALS1; concentration not given, 2 h, gene set Galectin-1; reference: untreated cells).
The remaining activity of COc1cc(Nc2ncc3c(n2)-c2ccc(Cl)cc2C(c2c(F)cccc2OC)=NC3)ccc1C(=O)O is reported as 102% (EPHA8; kinase activity; 1 µM).
For CNC(=O)c1cc(Oc2ccc(NC(=O)Nc3ccc(Cl)c(C(F)(F)F)c3)cc2)ccn1, the remaining activity was 26.1% (CDK2 with cyclin A2; kinase activity; 500 nM).
Cc1cc(NC(=O)c2cccc(NC(=O)/C=C/CN(C)C)c2)ccc1Nc1nccc(-c2cccnc2)n1 has a remaining activity of 1.01 (MAPK9 (Homo sapiens, UniProt P45984); enzyme activity, inhibitor; 8.363e-05 µM, unit not given; reference: vehicle).
NC/C(=C\F)COc1cccc(Cn2c(=S)[nH]c(=O)c3[nH]cnc32)c1 gave a remaining activity of 86.8% (Peroxidasin homolog (PXDN, Homo sapiens, UniProt Q92626); Amplex UltraRed; 2.5 µM, mean of replicates; reference: control).
The remaining activity of CNc1ncc2c(/C=C/C(=O)N3CCC(OC)CC3)nn(Cc3cccc(C(F)(F)F)c3)c2n1 is reported as 83% (WEE1 (Homo sapiens, UniProt P30291); kinase activity, inhibitor; 1 µM; reference: untreated control).
For COc1cc(F)ccc1-c1ncnc(Nc2cccc(C[S@](C)(=N)=O)c2)n1, the remaining activity was 108% (PIP4K2A (Homo sapiens, UniProt P48426); kinase activity; 10 µM, with: 10 µM ATP).
C=CC(=O)N1CCC[C@@H](n2nc(-c3ccc(Oc4ccccc4)cc3)c3c(N)ncnc32)C1 gave a remaining activity of 2.3 ± 0.2% (ITK (Homo sapiens, UniProt Q08881); kinase activity, inhibitor, HotSpot radiometric; 100 nM, with: ATP 10 µM).
For CC(=O)Nc1c(N)nc(SCC(=O)NN)[nH]c1=O, the remaining activity was 58.8% (CDK2 with cyclin A2; kinase activity; 100 nM).
For Cc1cc(Nc2cc(N3CCN(C)CC3)nc(Sc3ccc(NC(=O)C4CC4)cc3)n2)[nH]n1, the remaining activity was 100% (Insulin-like growth factor 1 receptor, activated (IGF1R, Homo sapiens, UniProt P08069); kinase activity; 0.03 µM, activated kinase; reference: control).

Excerpt of the above:
C=CC(=O)N1CCC[C@@H](n2nc(-c3ccc(Oc4ccccc4)cc3)c3c(N)ncnc32)C1 gave a remaining activity of 87.6% (TSSK2 (Homo sapiens, UniProt Q96PF2); 0.1 µM).
